Results of several laboratories.
Parts stem from different laboratories: compare values within a part only. Positions count from the first letter of the parent shown.

Series 1 — technique: RNA Bind-n-Seq; form: RNA; matrix: in vitro; concentration: 365 nM; baseline: no-protein control; direction: higher = stronger binding; quantity: RBNS enrichment (R)
Target: RNA binding protein fox-1 homolog 2, RRM domain, GST-SBP tag (RBFOX2, Homo sapiens, UniProt O43251-10, residues 100-194)
Notes: natural RNA segment, single round, ends assumed
Constant ends, left off below: GGGAGUUCUACAGUCCGACGAUC … UGGAAUUCUCGGGUGCCAA
Residues (chain): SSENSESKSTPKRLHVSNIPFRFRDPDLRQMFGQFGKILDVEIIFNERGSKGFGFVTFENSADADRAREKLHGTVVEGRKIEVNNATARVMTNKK
AAGGAUAUGAACAUUUUCAAGAACUCUGCUGAGGUCACUUAGAGCGCCAUCACAACUUAUUUGUGUGACUAAUUGCCUAGAUUGUAAGCUCUUUGAGGGCAGGGCUUGUC: 0.832
AGAGGCAAAAAAAGACACACUAUUCUCUGCCUCUAAAACACAAUUAAAUAAAAGAAUUUAAAUAAAAUUAAGGCUUCUAUAUGCAUUUUUAAAUUUUGUAUGAAUCUGUU: 1.39
GACACAUUUCGGUCCAGUGUAGCUGUACAUAUGGGGUGUGGACGACCUGUUACUGGACAUGUCUUAUUAAAUGGGUUGCUGUAUUAGGAUUAUAAACAUUUUUCAUUAUU: 0.873
AGUUGUGGUACACGUCCCCGGUGCUGGGUUGGCCGUGACUCGGGGGCGGGGCGAUCGGGUCUCAGCCCCUGCCUUCCCCAGUCUCUGGGUCACCCGAAUUUUCCCACCCC: 0.345
ACCCCUGUCUGGUGAUAUGCUAUACCCCAGUGCUGCCUACACGUGCUUUAGCUGUAGAGCUGGGUAUACUGUUGAUCCAGCUGUCCGUCAGGGACUUGAUAACCUGAUGU: 0.416
GUCUGCAGCCCGGGCUGCCUGGGCCACAGCCUGCCAGUGUGGGCAGUGUGACGAAAGGCGGCCUGUACUGCCCUAAGAAAUCUGAUGUAAAGUUUUUGUAUAUUUCAUAU: 0.324
CAGCCUUCCCCACCAAGUCUAAAAAGACCUGGCCUUUCACUUUUAGUUGGCAUUUGUUAUCCUCUUGUAUACUUGUAUUCCCUUAACUCUAACCCUGUGGAAGCAUGGCU: 0.607
ACAGAACAGCUGUCCAUCAGUGAGCUUGUACAGUGCUGAUUUGCAGCUCCAACAUGCGGGAUGUUCAUCCUCCUACACAGAUUCUUGUUGGGUGAAACAGAUUGUCCUAU: 0.694

Series 2 — technique: RNA Bind-n-Seq; form: RNA; matrix: in vitro; concentration: not given; baseline: input RNA pool; direction: higher = stronger binding; quantity: bound/input enrichment
Target: RING finger protein unkempt homolog, zinc fingers 1-6, GST-SBP tag (UNK, Homo sapiens, UniProt Q9C0B0, residues 30-357)
Sequence of UniProt Q9C0B0 (30-357, looked up): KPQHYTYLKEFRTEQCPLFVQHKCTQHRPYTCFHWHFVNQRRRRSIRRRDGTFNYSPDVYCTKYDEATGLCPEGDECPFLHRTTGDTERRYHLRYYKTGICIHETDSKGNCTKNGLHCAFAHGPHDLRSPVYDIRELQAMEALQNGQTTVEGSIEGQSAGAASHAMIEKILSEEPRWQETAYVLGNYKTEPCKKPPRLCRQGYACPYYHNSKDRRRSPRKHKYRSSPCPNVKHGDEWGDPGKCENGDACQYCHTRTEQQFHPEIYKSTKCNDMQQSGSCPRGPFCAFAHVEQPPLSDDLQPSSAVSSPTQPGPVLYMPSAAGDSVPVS
Notes: RNA with constant flanks, human-mouse chimeric sites, ends assumed
Constant ends, left off below: GGGAGUUCUACAGUCCGACGAUC … CAACAGAGGAUUGAGCAUCA
UCUUUAAAUGCACUACAACCUUUUCUGACAGUGCUUUCCCUCCCAUAGAUCCACGUUCACACUAGAAGAGCAAAGGCUUUGCACGGAGCUCAAACAUCUGAUGAAGAAAGAUUUCUGAGA: 0.837 ratio
GCUGAAAAUGAAGAAGAGGCAGCUGAUGUCUGGUACAACCUGGGGCAUGUAGCUGUGGGAAUCGGAGAUACAAAUUUGGCCCACCAAUGCUUCAGGCUGGCCCUGGUCCACAACAACCAC: 0.136 ratio
CUGUGUGUGCUGAAUAAAUGGCUUGUAAAGAAGUUUUUCCAAGCUGUAACCCAUGCUGUUAUUAUAGUUGCUGCAAAAUGUUCUUCCUGAUAUUGAUGUUUGUUUACCUGACUCUCCCUC: 0.435 ratio
GCGGCAGAAUCAUGGAGGACAUAAUGCAGCUCCCCAAAGCGCGCGUCAACGCCAGCAUGUUACCACAAUUCAUCGACCGGCCCGUGUGCUUCGUGGGGAGGCUGGAAAAGAUUCAUCCCA: 0.14 ratio
UAUAAUAAUCAUGAAAUUCGUUCCGGGAAACAUAUUGGUGUCUGCAUCUCAGUUGCCAACAAUAGGCUUUUUGUGGGCUCGAUUCCUAAGAGUAAAACCAAGGAACAGAUUCUUGAGGAA: 1.94 ratio
CGCUUGGAUGAGGCGGGUGUCACAGAUGAAGUGCUAGAUUCUGCCAUGCAAGCCUUCCUUCUGGAGGUCAUUGUUAAACAUGGGGAGCCAGCCCCUUAUUUAUGUAAUAAAGAUCCUUUU: 0.194 ratio
AUUCCGAUUAUGGACACCGGUGAAAACCCAGAGGUGCCCUUCCCCCGGGACAUGAUCGACUUAGAGGCCAAUUUUGAGAAGAUUGAAAAUGAACUGAAGGAAAUCAACACAAACCAGGAA: 0.169 ratio

Series 3 — target: CCND1, cyclin fold, Cln2 fusion (human); technique: yeast growth competition, sequencing; matrix: yeast; notes: weak parent motif; baseline: not given; direction: higher = stronger binding; quantity: normalised enrichment score
Parent: MICAL3 docking peptide (human); LQLRRQLSFSEDS
L7Q: -0.089
Q6A: 0.506
R4D: 0.317

Single results of other studies
PhoQ, residues 284 288 289 292 302 303 ASTSDA
fold induction (PhoP, residues 12 14 15 18 19 LHHVQ (Escherichia coli, UniProt P23836); Sort-seq, refers to: YFP reporter; E. coli; PhoQ-PhoP variant library, with: 10 µM Mg2+; baseline: high Mg2+ state, higher = stronger signaling): 20

Excerpt of the above (series 1):
ACCCCUGUCUGGUGAUAUGCUAUACCCCAGUGCUGCCUACACGUGCUUUAGCUGUAGAGCUGGGUAUACUGUUGAUCCAGCUGUCCGUCAGGGACUUGAUAACCUGAUGU: 0.416
GUCUGCAGCCCGGGCUGCCUGGGCCACAGCCUGCCAGUGUGGGCAGUGUGACGAAAGGCGGCCUGUACUGCCCUAAGAAAUCUGAUGUAAAGUUUUUGUAUAUUUCAUAU: 0.324
